Assay results gathered from unrelated publications.
Each line is one published result; not all experiments were run side by side. “And” joins repeats or separate records; there may be more than shown. ± gives the spread as reported.
Urease: Urease (Canavalia ensiformis, UniProt P07374)
Oprk1: Kappa-type opioid receptor (Oprk1, Mus musculus, UniProt P33534)
Cnr2: Cannabinoid receptor 2 (Cnr2, Mus musculus, UniProt P47936)
MC4R: Melanocortin receptor 4 (MC4R, Homo sapiens, UniProt P32245)
NPY2R: Neuropeptide Y receptor type 2 (NPY2R, Homo sapiens, UniProt P49146)

`CC1=C[C@H](O/C=C2/C(=O)O[C@@H]3c4ccccc4C[C@H]23)OC1=O` (racemic) gave a Ki of 0.102 µM and 0.1 µM (RMS3 (Lathyrus oleraceus, UniProt A0A109QYD3); cell-free assay, inhibitor).
`CNCP(C)(=O)O` gave a Ki of 224 µM (Urease; enzyme activity, inhibitor, absorbance; pH 7).
`C[n+]1ccc(C(=O)NC2CCC3(O)C4Cc5ccc(O)c6c5C3(CC[N+]4(C)CC3CC3)C2O6)cc1` (stereo not shown) gave a Ki of 0.0201 µM (Oprk1; ligand displacement, radioligand; cell membranes).
For `Cc1cc2c(cc1Cl)-c1c(c(C(=O)NC3C4(C)CCC(C4)C3(C)C)nn1-c1ccc(Cl)cc1Cl)C2` (stereo not shown), the Ki was 0.09 µM (Cnr2; ligand displacement, radioligand).
`COc1ccc(CC[C@H]2OC(=O)[C@@H]3CCCCN3C(=O)C(=O)C(C)(C)COC(=O)/C=C/CCN(C)C(=O)[C@H](CC(C)C)N(C)C(=O)[C@@H]3CCCN3C(=O)[C@H](Cc3ccccc3)N(C)C(=O)[C@H](c3ccccc3)NC(=O)CCC(=O)Nc3cccc2c3)cc1OC` has a Ki of 0.156 ± 0.033 µM (SLC29A1 (Homo sapiens, UniProt Q99808)).
`CC(C)=CCCC1(C)C=Cc2c(ccc3cc(-c4cc(O)cc(O)c4CC=C(C)C)oc23)O1` (stereo not shown) has a Ki of 0.78 µM (Cholinesterase (BCHE, Equus caballus, UniProt P81908); enzyme activity, inhibitor).
With `CC[C@H](C)[C@H](NC(=O)[C@H](CCC(=O)O)NC(=O)[C@H](Cc1ccc(Cl)cc1)NC(=O)[C@@H](C)NC(=O)[C@@H](N)Cc1ccc(O)cc1)C(=O)N[C@H](C(=O)NCC(N)=O)[C@@H](C)CC` the Ki was > 1 µM (Oprk1; ligand displacement, radioligand; cell membranes).
`NC(=O)COC(=O)c1cc(Br)ccc1F` gave a Ki of 9.24 µM (Urease; enzyme activity, inhibitor).
The Ki of `Clc1cc2oc3cc(Cl)c(Cl)cc3c2cc1Cl` is reported as 0.0011 µM (Ahr (Mus musculus, UniProt P30561); radioligand binding, hydroxyapatite competition binding; in vitro expressed receptor; pH 7.5, added: [3H]TCDD 1.6 or 0.9 nM).
`CP(=O)(O)CN` has a Ki of > 1000 µM (Urease; inhibitor; pH 7).
The Ki of `CC[C@H](C)[C@H](NC(=O)CN)C(=O)N[C@H](C(=O)N[C@@H](CC(N)=O)C(=O)N[C@H](C(=O)N[C@@H](CC(C)C)C(=O)N[C@@H](CCC(N)=O)C(=O)N[C@@H](CCCCN)C(=O)N[C@@H](Cc1ccc(O)cc1)C(=O)N[C@@H](Cc1ccc(O)cc1)C(=O)N[C@H]1CSSC[C@@H]2NC(=O)[C@H](CCCCN)NC(=O)[C@H](CCCNC(=N)N)NC(=O)CNC(=O)[C@H](CCCNC(=N)N)NC(=O)[C@H]([C@@H](C)O)NC(=O)[C@H](CO)NC(=O)[C@@H]3CSSC[C@H](NC(=O)[C@H](CCCNC(=N)N)NC(=O)CNC(=O)CNC(=O)[C@H](CCCNC(=N)N)NC(=O)[C@H](C(C)C)NC(=O)[C@H](CCCNC(=N)N)NC1=O)C(=O)N[C@@H](C)C(=O)N[C@@H](C(C)C)C(=O)N[C@@H](CC(C)C)C(=O)N[C@@H](CO)C(=O)N[C@@H](CSSC[C@@H](C(=O)N[C@@H](C)C(=O)N[C@@H](CCCNC(=N)N)C(=O)N[C@@H](C)C(=O)N[C@@H](CCCCN)C(N)=O)NC2=O)C(=O)N[C@@H](CC(C)C)C(=O)N1CCC[C@H]1C(=O)N[C@@H](CCCCN)C(=O)N[C@@H](CCC(=O)O)C(=O)N[C@@H](CCC(=O)O)C(=O)N[C@@H](CCC(N)=O)C(=O)N[C@@H]([C@@H](C)CC)C(=O)NCC(=O)N[C@@H](CCCCN)C(=O)N3)[C@@H](C)O)[C@@H](C)CC` is reported as 0.178 µM (MC4R; ligand displacement in cells).
`Cc1cc2c(cc1Cl)Cc1c(C(=O)NC3CCCCC3)nn(-c3ccc(Cl)cc3Cl)c1-2` gave a Ki of 0.384 µM (Cnr2; ligand displacement, radioligand).
`CC[C@H](C)[C@H](NC(=O)CN)C(=O)N[C@H](C(=O)N[C@@H](CC(N)=O)C(=O)N[C@H](C(=O)N[C@@H](CC(C)C)C(=O)N[C@@H](CCC(N)=O)C(=O)N[C@@H](CCCCN)C(=O)N[C@@H](Cc1ccc(O)cc1)C(=O)N[C@@H](Cc1ccc(O)cc1)C(=O)N[C@H]1CSSC[C@@H]2NC(=O)[C@H](CCCCN)NC(=O)[C@H](CCCNC(=N)N)NC(=O)CNC(=O)[C@H](CCCNC(=N)N)NC(=O)[C@H]([C@@H](C)O)NC(=O)[C@H](CO)NC(=O)[C@@H]3CSSC[C@H](NC(=O)[C@H](CCCNC(=N)N)NC(=O)CNC(=O)CNC(=O)[C@H](CCCNC(=N)N)NC(=O)[C@H](C(C)C)NC(=O)[C@H](CCCNC(=N)N)NC1=O)C(=O)N[C@@H](C)C(=O)N[C@@H](C(C)C)C(=O)N[C@@H](CC(C)C)C(=O)N[C@@H](CO)C(=O)N[C@@H](CSSC[C@@H](C(=O)N[C@@H](CCCNC(=N)N)C(=O)N[C@@H](CCCNC(=N)N)C(=O)N[C@@H](CCCCN)C(=O)N[C@@H](CCCCN)C(N)=O)NC2=O)C(=O)N[C@@H](CC(C)C)C(=O)N1CCC[C@H]1C(=O)N[C@@H](CCCCN)C(=O)N[C@@H](CCC(=O)O)C(=O)N[C@@H](CCC(=O)O)C(=O)N[C@@H](CCC(N)=O)C(=O)N[C@@H]([C@@H](C)CC)C(=O)NCC(=O)N[C@@H](CCCCN)C(=O)N3)[C@@H](C)O)[C@@H](C)CC` has a Ki of 0.11 µM (MC4R; ligand displacement in cells).
`CC(C)C[C@H](NC(=O)[C@@H]1CCCN1C(=O)[C@@H](N)CCCCN)C(=O)N[C@@H](CCC(=O)O)C(=O)N[C@H](CN[C@@H](Cc1ccccc1)C(=O)N[C@@H](CCCNC(=N)N)C(=O)N[C@H](C(=O)O)C(C)C)Cc1ccccc1` gave a Ki of 5.5 ± 0.7 µM (Plasmepsin I (PMI, Plasmodium falciparum, UniProt Q7KQM4)).
For `CN1CCN(C(=O)N[C@@H](Cc2ccccc2)C(=O)N[C@H](/C=C/S(=O)(=O)c2ccccc2)CCc2ccccc2)CC1`, the Ki was > 100 µM (CTSC (Bos taurus, UniProt Q3ZCJ8); enzyme activity, inhibitor, fluorescence; pH 5.5).
`CC(=O)N[C@@H](CCCNC(=N)N)C(=O)N[C@@H](Cc1ccc(O)cc1)C(=O)N[C@@H](CCCNC(=N)NC(=O)NCCCCN)C(=O)N[C@@H](CC(C)C)C(=O)N[C@H](CCCNC(=N)N)C(=O)N[C@@H](Cc1ccc(O)cc1)C(N)=O` gave a Ki of > 5 µM (NPY2R; ligand displacement, radioligand).
With `CC(C)[C@H](NC(=O)[C@H](CCCNC(=N)N)NC(=O)[C@H](C)NC(=O)[C@H](CCCNC(=N)N)NC(=N)N)C(=O)N[C@@H](CCCNC(=N)N)C(=O)NCc1ccc(C(=N)N)cc1` the Ki was 1.19e-05 µM (Furin (FURIN, Homo sapiens, UniProt P09958); enzyme activity, inhibitor, fluorescence).
With `C[N+](C)(CCn1cc(C[C@@H](NC(=O)c2cc(I)cc(I)c2I)C(=O)NCC2CCC(C(=O)N[C@H](Cc3ccc4ccccc4c3)C(=O)NCCCC[C@H](NC(=O)N[C@@H](CCC(=O)O)C(=O)O)C(=O)O)CC2)nn1)C[B-](F)(F)F` (stereo partly shown) the Ki was 0.00049 µM (FOLH1 (Homo sapiens, UniProt Q04609); binding, radioligand competition; LNCaP; added: 18F-labelled compound).
`CC(C)(C)OC(=O)C[C@H](NC(=O)OCc1ccccc1)C(=O)CBr` gave a Ki of > 200 µM (Serine protease 1 (PRSS1, Bos taurus, UniProt P00760)).
The Ki of `CC(=O)N[C@@H](CCCNC(=N)N)C(=O)N[C@@H](Cc1ccc(O)cc1)C(=O)N[C@@H](CCCNC(=N)NC(=O)NCCCCN)C(=O)N[C@@H](CC(C)C)C(=O)N[C@@H](CCCNC(=N)N)C(=O)N[C@@H](Cc1ccc(O)cc1)C(=O)O` is reported as > 5 µM (NPY2R; ligand displacement, radioligand).
For `Cc1cc(O)cc(C)c1C[C@H](N)C(=O)N[C@H](C)C(=O)N[C@@H](Cc1ccccc1)C(=O)N[C@@H](Cc1ccccc1)C(N)=O`, the Ki was 0.003 µM (Oprk1; ligand displacement, radioligand; cell membranes).
For `COc1c(OCCOCCOCCOc2cccc(C(=O)C3CCN(CCc4ccc(F)cc4)CC3)c2OC)cccc1C(=O)C1CCN(CCc2ccc(F)cc2)CC1`, the Ki was 0.0072 µM (HTR2A (Homo sapiens, UniProt P28223); ligand displacement, radioligand).
With `CC[C@H](C)[C@H](NC(=O)CN)C(=O)N[C@H](C(=O)N[C@@H](CC(N)=O)C(=O)N[C@H](C(=O)N[C@@H](CC(C)C)C(=O)N[C@@H](CCC(N)=O)C(=O)N[C@@H](CCCCN)C(=O)N[C@@H](Cc1ccc(O)cc1)C(=O)N[C@@H](Cc1ccc(O)cc1)C(=O)N[C@H]1CSSC[C@@H]2NC(=O)[C@H](CCCCN)NC(=O)[C@H](C)NC(=O)CNC(=O)[C@H](CCCNC(=N)N)NC(=O)[C@H]([C@@H](C)O)NC(=O)[C@H](CO)NC(=O)[C@@H]3CSSC[C@H](NC(=O)[C@H](CCCNC(=N)N)NC(=O)CNC(=O)CNC(=O)[C@H](CCCNC(=N)N)NC(=O)[C@H](C(C)C)NC(=O)[C@H](CCCNC(=N)N)NC1=O)C(=O)N[C@@H](C)C(=O)N[C@@H](C(C)C)C(=O)N[C@@H](CC(C)C)C(=O)N[C@@H](CO)C(=O)N[C@@H](CSSC[C@@H](C(=O)N[C@@H](CCCNC(=N)N)C(=O)N[C@@H](CCCNC(=N)N)C(=O)N[C@@H](CCCCN)C(=O)N[C@@H](CCCCN)C(N)=O)NC2=O)C(=O)N[C@@H](CC(C)C)C(=O)N1CCC[C@H]1C(=O)N[C@@H](CCCCN)C(=O)N[C@@H](CCC(=O)O)C(=O)N[C@@H](CCC(=O)O)C(=O)N[C@@H](CCC(N)=O)C(=O)N[C@@H]([C@@H](C)CC)C(=O)NCC(=O)N[C@@H](CCCCN)C(=O)N3)[C@@H](C)O)[C@@H](C)CC` the Ki was 0.106 µM (MC4R; ligand displacement in cells).
With `O[C@@H]1[C@@H](O)[C@H](O)C[C@H]2N[C@@H]12` the Ki was 36.7 µM (Exo-1,4-beta-xylosidase xlnD (xlnD, Emericella nidulans, UniProt Q5BAS1); covalent inhibitor; Aspergillus nidulans; pH 4.5, ambient, added: 4MU-β-D-xyloside).
With `CCSc1nnc(-c2ccc(S(=O)(=O)NC(=O)COC(C)=O)cc2)o1` the Ki was 0.0222 µM (CA2 (Homo sapiens, UniProt P00918); enzyme activity, inhibitor).
